Experimental data from different studies.
Every numbered part comes from another study and shows a few of its results, in no order. Positions count from the first letter of the parent shown.
UniProt O15294, sequence (whole entry, looked up): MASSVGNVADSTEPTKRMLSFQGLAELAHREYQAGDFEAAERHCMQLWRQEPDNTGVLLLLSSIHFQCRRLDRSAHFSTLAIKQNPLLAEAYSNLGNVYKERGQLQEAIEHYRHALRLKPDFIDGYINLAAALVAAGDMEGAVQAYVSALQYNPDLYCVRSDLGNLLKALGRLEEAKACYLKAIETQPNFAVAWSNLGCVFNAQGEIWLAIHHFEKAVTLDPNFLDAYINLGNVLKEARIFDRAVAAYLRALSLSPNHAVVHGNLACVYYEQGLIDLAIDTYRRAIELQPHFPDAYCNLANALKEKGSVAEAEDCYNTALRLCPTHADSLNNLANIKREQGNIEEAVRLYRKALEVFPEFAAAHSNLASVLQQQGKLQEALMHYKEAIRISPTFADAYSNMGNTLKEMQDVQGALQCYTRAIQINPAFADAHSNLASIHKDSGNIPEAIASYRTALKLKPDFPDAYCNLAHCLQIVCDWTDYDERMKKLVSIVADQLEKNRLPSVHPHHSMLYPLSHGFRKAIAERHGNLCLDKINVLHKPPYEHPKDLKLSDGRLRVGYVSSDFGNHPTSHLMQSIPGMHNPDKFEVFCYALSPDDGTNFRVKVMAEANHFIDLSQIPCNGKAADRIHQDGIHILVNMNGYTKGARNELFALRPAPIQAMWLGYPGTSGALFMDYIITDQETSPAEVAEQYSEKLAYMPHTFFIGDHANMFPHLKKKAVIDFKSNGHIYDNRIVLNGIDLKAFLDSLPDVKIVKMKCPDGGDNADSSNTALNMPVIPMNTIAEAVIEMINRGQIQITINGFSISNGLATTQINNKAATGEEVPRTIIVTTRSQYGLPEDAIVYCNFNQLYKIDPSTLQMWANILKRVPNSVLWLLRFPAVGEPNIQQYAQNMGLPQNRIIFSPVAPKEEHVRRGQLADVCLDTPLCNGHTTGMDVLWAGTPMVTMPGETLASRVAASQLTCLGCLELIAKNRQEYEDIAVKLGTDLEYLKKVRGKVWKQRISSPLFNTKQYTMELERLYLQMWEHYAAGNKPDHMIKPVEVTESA

Series 1
Target: Interferon regulatory factor 5, full length, phosphomimetic (IRF5, Homo sapiens, UniProt Q13568-2, residues 1-514, K96S/S451D/S453D/S456D/S462D)
Method: protein-binding microarray
Form: double-stranded DNA, one strand shown
Sample: in vitro
Tested at: 250 nM
Notes: 60-bp whole probe
Added: salmon DNA 0.4 mg/ml
Reference: random background probes
Reading: higher = stronger binding
All sequences stand within: GCCTAGCAC … GTCTTGATTCGCTTGACGCTGCTG
Strand | log fluorescence
TTAGGTTTCCGACTGGGTTAGTGCTAG | 0.0831 z-score
GACGGATTGCTACTGCTGACGTGCTAG | -0.428 z-score
GACGTACTGGGGTATCGAGACGTGCTA | 0.0178 z-score
TTAGGTTCCGGTTTCAGTTAGTGCTAG | 5.23 z-score
GACAGACTGGGGTATCGGGACGTGCTA | 0.14 z-score
GACTGTCTCGGTCTCGGGACGTGCTAG | 0.281 z-score
TCAAGTTTCTCCTTTCGACTGTGCTAG | 4.99 z-score
TCCCTTTCAGTTTTCCTATGGTGCTAG | 4.3 z-score

Series 2
Target: ATF5, bZIP domain (human)
Method: DHFR protein complementation
Sample: yeast
Notes: single substitutions, most at no-binding floor
Reference: wild-type JUN-FOS pair
Reading: higher = stronger binding
Starting sequence: JUN, bZIP domain (human); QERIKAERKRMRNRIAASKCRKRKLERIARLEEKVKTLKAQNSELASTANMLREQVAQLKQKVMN; partner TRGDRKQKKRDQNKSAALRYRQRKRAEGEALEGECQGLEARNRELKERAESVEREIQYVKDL
Substitution | binding fitness
V35H | -1.48 natural log
E44S | -1.48 natural log
K39G | -1.47 natural log
Q55E | -1.43 natural log
E32L | -1.36 natural log
V56S | -1.49 natural log
M51W | -1.48 natural log
L52D | -1.59 natural log

Other studies, line by line
Molecule | target | assay | system | conditions | how to read | endpoint | result
DFMGLEFMPVYQIRI | OGT (Homo sapiens, UniProt O15294) | binding, phage display NGS | peptide | panning round 2 | reference: input library | minimum log2 enrichment ratio | 3.88
PhoQ, residues 284 288 289 292 302 303 SLCLSL | PhoP, residues 12 14 15 18 19 LYHSL (Escherichia coli, UniProt P23836) | Sort-seq, item: YFP reporter | E. coli | PhoQ-PhoP variant library, added: 10 µM Mg2+ | reference: high Mg2+ state, higher = stronger signaling | fold induction | 0.993

Excerpt of the above (series 2):
Substitution | binding fitness
V56S | -1.49 natural log
